Published values of several laboratories.
Each numbered part is a random draw from the data of one study; scales do not carry over between parts. Values joined by “and” are separate records of one study, mostly repeats; a detail may differ.
Chain of UniProt Q8WTQ7 (whole entry, looked up): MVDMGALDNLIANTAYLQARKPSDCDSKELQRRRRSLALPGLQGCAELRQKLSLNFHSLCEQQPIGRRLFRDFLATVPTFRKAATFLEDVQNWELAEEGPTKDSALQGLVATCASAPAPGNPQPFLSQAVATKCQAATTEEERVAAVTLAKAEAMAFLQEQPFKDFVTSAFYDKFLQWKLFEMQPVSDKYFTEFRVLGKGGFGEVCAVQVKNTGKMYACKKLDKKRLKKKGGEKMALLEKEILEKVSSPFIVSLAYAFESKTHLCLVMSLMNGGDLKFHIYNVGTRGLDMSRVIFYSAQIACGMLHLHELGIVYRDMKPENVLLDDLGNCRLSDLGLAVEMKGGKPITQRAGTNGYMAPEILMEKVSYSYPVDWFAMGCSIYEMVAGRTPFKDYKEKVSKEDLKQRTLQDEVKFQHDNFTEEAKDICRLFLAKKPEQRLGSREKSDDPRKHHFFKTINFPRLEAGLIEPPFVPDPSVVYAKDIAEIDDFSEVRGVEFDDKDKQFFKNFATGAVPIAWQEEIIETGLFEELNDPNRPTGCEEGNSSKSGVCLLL
Chain of UniProt P42336 (whole entry, unmodified, looked up): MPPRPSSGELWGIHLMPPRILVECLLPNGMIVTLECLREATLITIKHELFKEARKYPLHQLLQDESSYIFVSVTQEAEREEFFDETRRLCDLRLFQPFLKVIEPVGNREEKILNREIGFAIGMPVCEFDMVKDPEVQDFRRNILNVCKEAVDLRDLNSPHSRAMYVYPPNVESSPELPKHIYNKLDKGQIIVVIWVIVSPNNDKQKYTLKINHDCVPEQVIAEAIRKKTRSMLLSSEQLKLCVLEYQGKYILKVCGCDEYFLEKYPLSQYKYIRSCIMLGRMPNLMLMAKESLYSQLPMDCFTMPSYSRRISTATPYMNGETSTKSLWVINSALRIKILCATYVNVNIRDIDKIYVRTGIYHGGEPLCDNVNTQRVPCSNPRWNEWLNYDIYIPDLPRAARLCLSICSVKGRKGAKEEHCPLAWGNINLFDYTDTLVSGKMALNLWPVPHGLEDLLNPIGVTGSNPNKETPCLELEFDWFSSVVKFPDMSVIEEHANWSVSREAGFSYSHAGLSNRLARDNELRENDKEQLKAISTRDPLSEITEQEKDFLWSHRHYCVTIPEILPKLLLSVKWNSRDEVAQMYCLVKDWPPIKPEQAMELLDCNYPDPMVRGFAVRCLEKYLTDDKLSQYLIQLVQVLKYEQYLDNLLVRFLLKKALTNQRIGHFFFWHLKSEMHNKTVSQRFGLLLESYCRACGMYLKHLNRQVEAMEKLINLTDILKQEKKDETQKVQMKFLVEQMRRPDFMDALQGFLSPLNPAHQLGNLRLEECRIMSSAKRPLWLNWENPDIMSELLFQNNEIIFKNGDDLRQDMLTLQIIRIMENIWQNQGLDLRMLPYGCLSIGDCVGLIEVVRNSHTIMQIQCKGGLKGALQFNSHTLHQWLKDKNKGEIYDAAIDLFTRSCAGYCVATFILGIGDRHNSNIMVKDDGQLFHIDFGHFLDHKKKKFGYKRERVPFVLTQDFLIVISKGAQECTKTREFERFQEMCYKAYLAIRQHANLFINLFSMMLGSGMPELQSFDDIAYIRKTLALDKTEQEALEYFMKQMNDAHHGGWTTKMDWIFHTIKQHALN
Chain of UniProt Q8N752 (whole entry, looked up): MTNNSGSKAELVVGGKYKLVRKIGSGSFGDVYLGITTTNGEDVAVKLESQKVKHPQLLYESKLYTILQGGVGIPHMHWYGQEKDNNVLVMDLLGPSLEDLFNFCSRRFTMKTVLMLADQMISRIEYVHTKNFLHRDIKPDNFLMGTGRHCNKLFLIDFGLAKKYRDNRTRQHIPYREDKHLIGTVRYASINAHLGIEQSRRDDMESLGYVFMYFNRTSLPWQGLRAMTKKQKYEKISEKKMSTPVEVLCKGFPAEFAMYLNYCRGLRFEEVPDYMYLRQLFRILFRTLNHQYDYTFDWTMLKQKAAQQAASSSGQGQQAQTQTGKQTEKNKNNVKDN
Chain of UniProt Q7KZI7 (whole entry, looked up): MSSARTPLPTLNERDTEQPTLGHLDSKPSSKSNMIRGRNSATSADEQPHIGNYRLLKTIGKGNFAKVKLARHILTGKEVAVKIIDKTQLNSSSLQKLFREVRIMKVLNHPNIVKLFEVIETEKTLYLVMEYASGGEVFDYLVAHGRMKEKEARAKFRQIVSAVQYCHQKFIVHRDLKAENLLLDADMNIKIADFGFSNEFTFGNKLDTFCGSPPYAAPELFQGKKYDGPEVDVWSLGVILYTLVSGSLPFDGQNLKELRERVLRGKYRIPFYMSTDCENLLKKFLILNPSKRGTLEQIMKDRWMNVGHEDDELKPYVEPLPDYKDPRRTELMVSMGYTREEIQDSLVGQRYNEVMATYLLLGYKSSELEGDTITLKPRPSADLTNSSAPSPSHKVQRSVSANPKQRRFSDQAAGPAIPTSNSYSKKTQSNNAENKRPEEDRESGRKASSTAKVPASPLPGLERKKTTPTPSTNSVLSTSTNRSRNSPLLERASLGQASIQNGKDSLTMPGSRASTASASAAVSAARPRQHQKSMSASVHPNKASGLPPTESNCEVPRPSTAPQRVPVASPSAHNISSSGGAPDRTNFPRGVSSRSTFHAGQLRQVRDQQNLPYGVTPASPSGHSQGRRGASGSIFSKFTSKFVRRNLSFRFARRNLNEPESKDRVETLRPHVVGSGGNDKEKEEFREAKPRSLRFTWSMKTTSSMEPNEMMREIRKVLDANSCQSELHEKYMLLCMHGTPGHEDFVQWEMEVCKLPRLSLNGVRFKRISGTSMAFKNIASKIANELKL
Chain of UniProt P07948 (whole entry, looked up): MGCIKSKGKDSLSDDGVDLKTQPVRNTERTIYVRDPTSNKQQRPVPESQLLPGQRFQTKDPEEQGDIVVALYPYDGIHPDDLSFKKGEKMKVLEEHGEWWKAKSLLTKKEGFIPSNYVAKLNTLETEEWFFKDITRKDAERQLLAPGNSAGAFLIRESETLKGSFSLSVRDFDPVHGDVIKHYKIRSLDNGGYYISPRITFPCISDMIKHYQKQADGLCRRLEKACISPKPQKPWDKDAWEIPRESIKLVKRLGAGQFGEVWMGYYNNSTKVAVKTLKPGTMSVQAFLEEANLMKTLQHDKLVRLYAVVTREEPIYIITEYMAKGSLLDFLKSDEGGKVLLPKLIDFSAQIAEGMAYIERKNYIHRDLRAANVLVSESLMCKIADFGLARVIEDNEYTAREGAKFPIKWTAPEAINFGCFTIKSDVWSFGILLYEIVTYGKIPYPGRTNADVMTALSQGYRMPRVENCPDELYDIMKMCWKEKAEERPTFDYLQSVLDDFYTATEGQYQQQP

Set 1
Cell line: MDA-MB-231
Read-out: cell viability
Method: CellCounting-Lite
Concentration: 222.2 nM
Temperature: 37 °C
Reading: higher = more viable cells
Endpoint: luminescence signal
CCn1cnc2c(NCc3nc4cc(Cl)c(Cl)cc4[nH]3)nc(N3CCN(C(=O)[C@H](C)NC(C)=O)CC3)nc21: 78900 a.u. and 78500 a.u. and 73000 a.u.
CC(=O)N1CCN(c2nc(NCc3nc4cc(Cl)c(Cl)cc4[nH]3)c3ncn(C)c3n2)CC1: 173000 a.u. and 178000 a.u. and 132000 a.u.
CCn1cnc2c(NCc3nc4cc(Cl)c(Cl)cc4[nH]3)nc(N3CCN(C(=O)c4ccncc4)CC3)nc21: 8990 a.u. and 9360 a.u. and 11900 a.u.
CCn1cnc2c(NCc3nc4cc(F)c(F)cc4[nH]3)nc(N3CCn4ncnc4C3)nc21: 219000 a.u. and 230000 a.u. and 202000 a.u.
CCn1cnc2c(NCc3nc4cc(Cl)c(Cl)cc4[nH]3)nc(N3CCN(S(C)(=O)=O)CC3)nc21: 15400 a.u. and 14500 a.u. and 16300 a.u.
CCn1cnc2c(NCc3nc4cc(Cl)c(Cl)cc4[nH]3)nc(N3CCn4ncnc4C3)nc21: 14700 a.u. and 13500 a.u. and 15700 a.u.
CC(=O)N1CCN(c2nc(NCc3nc4cc(Cl)c(Cl)cc4[nH]3)c3ncn(C(C)C)c3n2)CC1: 515000 a.u. and 494000 a.u. and 491000 a.u.
CCn1cnc2c(NCc3nc4cc(Cl)c(Cl)cc4[nH]3)nc(N3CCC(NC(C)=O)CC3)nc21: 248000 a.u. and 224000 a.u. and 202000 a.u.
CCn1cnc2c(NCc3nc4ccc(F)c(F)c4[nH]3)nc(N3CCn4ncnc4C3)nc21: 105000 a.u. and 81100 a.u. and 113000 a.u.

Set 2
SMILES: C[C@@H]1CN(c2ccc(-c3cc(C(=O)NCCOCCOCCOCCOCCNC(=O)/C=C/c4[nH]cc(C(=O)N[C@@H](CC(N)=O)c5ccc(F)c(Cl)c5)c4-c4ccc(Cl)cc4F)ccc3F)cc2NC(=O)c2c[nH]c(=O)cc2C(F)(F)F)C[C@H](C)N1C
Read-out: thermal unfolding
Method: differential scanning fluorimetry
Concentration: 5.5 µM
Reading: higher = more unfolded
Endpoint: SYPRO Orange fluorescence
DCAF1: DDB1- and CUL4-associated factor 1 (DCAF1, Homo sapiens, UniProt Q9Y4B6)
Chain of UniProt Q9Y4B6 (whole entry, looked up): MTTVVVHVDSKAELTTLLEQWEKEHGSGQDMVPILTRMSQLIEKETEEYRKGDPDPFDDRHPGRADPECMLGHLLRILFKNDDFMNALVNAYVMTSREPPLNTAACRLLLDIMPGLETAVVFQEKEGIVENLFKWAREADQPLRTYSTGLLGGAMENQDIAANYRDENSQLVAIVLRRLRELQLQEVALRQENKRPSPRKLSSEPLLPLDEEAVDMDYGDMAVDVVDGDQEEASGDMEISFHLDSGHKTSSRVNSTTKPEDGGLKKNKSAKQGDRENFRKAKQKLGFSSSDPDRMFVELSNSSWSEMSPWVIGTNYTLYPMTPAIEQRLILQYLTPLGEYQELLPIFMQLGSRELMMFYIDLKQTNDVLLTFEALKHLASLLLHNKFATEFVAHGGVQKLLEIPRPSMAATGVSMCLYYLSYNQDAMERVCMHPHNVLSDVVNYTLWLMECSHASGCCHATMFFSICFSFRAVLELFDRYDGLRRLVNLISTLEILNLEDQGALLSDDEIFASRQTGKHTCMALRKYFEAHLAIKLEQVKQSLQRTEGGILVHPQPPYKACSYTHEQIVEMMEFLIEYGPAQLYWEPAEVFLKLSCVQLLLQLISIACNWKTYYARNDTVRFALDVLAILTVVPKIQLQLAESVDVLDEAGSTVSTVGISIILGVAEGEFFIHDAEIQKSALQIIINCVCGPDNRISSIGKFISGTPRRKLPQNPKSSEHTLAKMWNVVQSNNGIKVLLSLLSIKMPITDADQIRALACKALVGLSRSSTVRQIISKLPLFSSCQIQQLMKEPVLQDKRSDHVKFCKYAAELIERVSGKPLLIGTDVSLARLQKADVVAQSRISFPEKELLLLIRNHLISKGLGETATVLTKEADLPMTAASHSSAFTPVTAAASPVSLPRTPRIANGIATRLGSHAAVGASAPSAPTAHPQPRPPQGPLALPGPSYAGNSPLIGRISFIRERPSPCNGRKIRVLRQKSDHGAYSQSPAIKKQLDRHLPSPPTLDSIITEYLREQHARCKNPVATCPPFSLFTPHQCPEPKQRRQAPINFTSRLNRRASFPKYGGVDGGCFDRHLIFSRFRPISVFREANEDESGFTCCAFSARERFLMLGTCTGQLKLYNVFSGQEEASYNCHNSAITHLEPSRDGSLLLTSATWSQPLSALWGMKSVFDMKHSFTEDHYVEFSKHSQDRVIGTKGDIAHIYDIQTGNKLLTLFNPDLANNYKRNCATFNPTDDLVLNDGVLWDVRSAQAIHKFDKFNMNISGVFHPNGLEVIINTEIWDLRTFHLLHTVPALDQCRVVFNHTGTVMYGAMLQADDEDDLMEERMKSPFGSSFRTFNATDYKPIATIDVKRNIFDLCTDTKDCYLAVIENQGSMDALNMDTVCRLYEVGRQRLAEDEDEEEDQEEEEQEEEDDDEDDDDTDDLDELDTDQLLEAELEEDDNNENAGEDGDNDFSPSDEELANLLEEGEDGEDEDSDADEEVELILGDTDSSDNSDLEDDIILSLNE
WDR5: WD repeat-containing protein 5 (WDR5, Homo sapiens, UniProt P61964)
DCAF1; 91.41 °C: 33600 a.u.
WDR5; 27.4 °C: 12900 a.u.
DCAF1; 51 °C: 16000 a.u.
WDR5; 50.8 °C: 16600 a.u.
DCAF1; 43.2 °C: 12500 a.u.
WDR5; 36.4 °C: 13500 a.u.
WDR5; 63.01 °C: 14300 a.u.
DCAF1; 68.81 °C: 57200 a.u.
WDR5; 75.61 °C: 27300 a.u.
DCAF1; 86.41 °C: 38500 a.u.
DCAF1; 88.01 °C: 37000 a.u.

Set 3
Structure (SMILES): COc1cc(-c2nc3ccc(C(=O)NCCCN4CCN(c5cccc(C)c5C)CC4)cc3n2C2CCC2)cc(OC)c1OC
Concentration: 1 µM
Endpoint: remaining binding
MAP3K10 (Homo sapiens, UniProt Q02779); binding, competition with immobilised ligand: 90%
SIK2 (Homo sapiens, UniProt Q9H0K1); binding, competition with immobilised ligand: 100%
MARK2 (Homo sapiens, UniProt Q7KZI7); binding, competition with immobilised ligand: 88%
CSNK1A1L (Homo sapiens, UniProt Q8N752); binding, competition with immobilised ligand: 100%
Macrophage colony-stimulating factor 1 receptor, autoinhibited (CSF1R, Homo sapiens, UniProt P07333); binding, competition with immobilised ligand: 82%
GRK7 (Homo sapiens, UniProt Q8WTQ7); binding, competition with immobilised ligand: 94%
Tyrosine-protein kinase ABL1, phosphorylated (ABL1, Homo sapiens, UniProt P00519, H396P); binding, competition with immobilised ligand: 87%
Tyrosine-protein kinase ABL1, non-phosphorylated (ABL1, Homo sapiens, UniProt P00519, F317I); binding, competition with immobilised ligand: 83%
PIK3CA (Homo sapiens, UniProt P42336, I800L); binding, competition with immobilised ligand: 100%
MAP3K1 (Homo sapiens, UniProt Q13233); binding, competition with immobilised ligand: 91%
MAPK11 (Homo sapiens, UniProt Q15759); binding, competition with immobilised ligand: 85%
STK24 (Homo sapiens, UniProt Q9Y6E0); binding, competition with immobilised ligand: 100%
MAP3K14 (Homo sapiens, UniProt Q99558); binding, competition with immobilised ligand: 100%
MAPK6 (Homo sapiens, UniProt Q16659); binding, competition with immobilised ligand: 92%
ZAP70 (Homo sapiens, UniProt P43403); binding, competition with immobilised ligand: 86%
CDK19 (Homo sapiens, UniProt Q9BWU1); KINOMEscan; reference: control: 100%
PIM3 (Homo sapiens, UniProt Q86V86); binding, competition with immobilised ligand: 92%
DAPK2 (Homo sapiens, UniProt Q9UIK4); binding, competition with immobilised ligand: 99%

Set 4
SMILES: COCC1CC2C(CCC3C(O)CCC32)c2ccc(O)cc21 (stereo not shown)
Cell line: SK-OV-3
Method: DNA microarray
Endpoint: expression ratio
refers to: ACTB; 100 µM; reference: untreated control: 0.523 and 0.528 and 0.545 and 0.513 and 0.511
refers to: UBB; 25 µM; reference: untreated: 0.846
refers to: ADAMTS14; 100 µM; reference: untreated: 4.92
refers to: CCL1; 100 µM; reference: untreated: 5.3
refers to: ACTB; 25 µM; reference: untreated control: 0.83 and 0.819 and 0.831 and 0.81 and 0.86
refers to: UBD; 100 µM; reference: untreated: 0.566
refers to: ACTA2; 25 µM; reference: untreated control: 0.641
refers to: UBB; 100 µM; reference: untreated: 0.926
refers to: UBD; 25 µM; reference: untreated: 0.777
refers to: GAPDH; 25 µM; reference: untreated control: 0.818 and 0.819 and 0.856 and 0.857 and 0.83
refers to: CCL8; 100 µM; reference: untreated control: 1
refers to: ADAMTS14; 25 µM; reference: untreated: 3.74
refers to: ACTA2; 100 µM; reference: untreated control: 0.612
refers to: CCL1; 25 µM; reference: untreated: 5.4
refers to: GAPDH; 100 µM; reference: untreated control: 0.934 and 0.928 and 0.911 and 0.926 and 0.923
refers to: CCL8; 25 µM; reference: untreated control: 1

Set 5
SMILES: CCN1/C(=C/C=C2\CCCC(/C=C/C3=[N+](CC)c4ccccc4C3(C)C)=C2NCCCCCCCCN2CCC(Nc3nc4ccccc4n3Cc3ccc(F)cc3)CC2)C(C)(C)c2ccccc21
Cell line: U-87 MG
Concentration: concentration not given
Reference: DMSO
Endpoint: log2 fold change
refers to: FOXO3 mRNA: 0.825
refers to: CENPA mRNA: -2.44
refers to: SSPN mRNA: -0.909
refers to: RASL10B mRNA: -3.33
refers to: SSH3 mRNA: -0.835
refers to: PCDHGC5 mRNA: -1.85
refers to: STIL mRNA: -1.79
refers to: SELENOS mRNA: 1.09
refers to: GORAB mRNA: 1.37
refers to: IRF7 mRNA: 1.18
refers to: G0S2 mRNA: -2.14
refers to: DLX5 mRNA: -3.81
refers to: IL11RA mRNA: -1.19
refers to: IFFO1 mRNA: -0.985
refers to: RNF26 mRNA: -1.28
refers to: LRP1B mRNA: 1.69

Set 6
Structure (SMILES): CN(C1COC1)C(C)(C)/C=C(\C#N)C(=O)N1CCC[C@H]1Cn1nc(-c2ccc(Oc3ccccc3)cc2F)c2c(N)ncnc21
Read-out: kinase activity
Endpoint: inhibition
Cyclin-dependent kinase 6, with cyclin D3 (CDK6, Homo sapiens, UniProt Q00534); 1 µM: -2%
EIF2AK3 (Homo sapiens, UniProt Q9NZJ5); 1 µM: 2%
FGFR2 (Homo sapiens, UniProt P21802); 1 µM: 24%
EPHA8 (Homo sapiens, UniProt P29322); 1 µM: 0%
FER (Homo sapiens, UniProt P16591); 0.1 µM: -4%
MET (Homo sapiens, UniProt P08581); 1 µM: 0%
PKN2 (Homo sapiens, UniProt Q16513); 1 µM: 5%
RPS6KA1 (Homo sapiens, UniProt Q15418); 0.1 µM: 4%
PRKCQ (Homo sapiens, UniProt Q04759); 0.1 µM: 6%
Tyrosine-protein kinase Lyn, isoform A (LYN, Homo sapiens, UniProt P07948); 1 µM: 19%
PRKACB (Homo sapiens, UniProt P22694); 0.1 µM: 5%
5'-AMP-activated protein kinase catalytic subunit alpha-1, with beta1, gamma1 (PRKAA1, Homo sapiens, UniProt Q13131); 1 µM: -3%
ERBB4 (Homo sapiens, UniProt Q15303); 0.1 µM: 50%
CHEK1 (Homo sapiens, UniProt O14757); 1 µM: 5%
MARK1 (Homo sapiens, UniProt Q9P0L2); 0.1 µM: 4%
GRK7 (Homo sapiens, UniProt Q8WTQ7); 1 µM: -10%

Set 7
SMILES: C=CC(=O)N1CCN(c2nc(OC[C@@H]3CCCN3C)nc3c2CCN(c2cccc4cccc(C)c24)C3)C[C@@H]1CC#N
Target: GTPase KRas (KRAS, Homo sapiens, UniProt P01116, G12D)
Read-out: binding
Method: NanoBRET
Cell line: HEK293 (live)
Reading: lower = stronger binding
Endpoint: target engagement
1.602 µM: 13% and 12.5% and 17.1% and 12.6%
0.3979 µM: 86.3% and 80.7% and 84.3% and 83.5%
1 µM: 41.4% and 47.6% and 46.4% and 42%

Single results of other studies
Cc1ccc(O)c(C)c1-c1cnc2[nH]c(-c3cnc(N4CCC(CN5CCN(c6ccc(NC7CCC(=O)NC7=O)cc6F)CC5)CC4)nc3)cc2c1C#N (stereo not shown)
volume of distribution (steady state) (Sprague-Dawley rat, male, plasma; intravenous, 1 mg/kg): 2.8 L/kg

CC[C@@]1(c2cccc(C(F)(F)F)c2)C2=C(Nc3n[nH]cc31)[C@H](F)C(C)(C)CC2=O (single isomer, unassigned)
fu (rat plasma; 4 h): 0.0312

Cc1ccc(O)c(C)c1-c1cnc2[nH]c(-c3cnc(N4CCC5(CC4)CC(N4CCN(c6ccc(NC7CCC(=O)NC7=O)cc6F)CC4)CO5)nc3)cc2c1C#N (stereo not shown)
bioavailability (female CD-1 mouse, plasma; oral, 60 mg/kg): 50%

Cc1ncc(-c2cc3c(C#N)c(-c4c(C)ccc(O)c4C)cnc3[nH]2)cn1
inhibition (PKMYT1 (Homo sapiens, UniProt Q99640); cell-free assay, TR-FRET; 41.15 nM): 105%

Cc1ccc(O)c(C)c1-c1cnc2[nH]c(-c3cnc(N4CCC(CN5CCN(c6ccc7c(c6F)CN(C6CCC(=O)NC6=O)C7=O)CC5)CC4)nc3)cc2c1C#N (stereo not shown)
plasma concentration (CD-1 mouse; oral, 20 mg/kg, 24 h): not detected

A few entries again (set 3):
GRK7 (Homo sapiens, UniProt Q8WTQ7); binding, competition with immobilised ligand: 94%
Tyrosine-protein kinase ABL1, phosphorylated (ABL1, Homo sapiens, UniProt P00519, H396P); binding, competition with immobilised ligand: 87%
Tyrosine-protein kinase ABL1, non-phosphorylated (ABL1, Homo sapiens, UniProt P00519, F317I); binding, competition with immobilised ligand: 83%
PIK3CA (Homo sapiens, UniProt P42336, I800L); binding, competition with immobilised ligand: 100%
MAP3K1 (Homo sapiens, UniProt Q13233); binding, competition with immobilised ligand: 91%
MAPK11 (Homo sapiens, UniProt Q15759); binding, competition with immobilised ligand: 85%
